Measurements collected from several papers.
Each line is one published result; not all experiments were run side by side. ± gives the spread as reported. Converted amounts (≈) assume the structure as drawn.
Cell line: HT-29

C#C[C@@]1(O)[C@@H](CO)O[C@@H](n2cc(F)c3c(N)ncnc32)[C@@H]1O
TGI (SRB; NCI-60 screen): > 100 µM

CSc1nc(-c2ccc(Cl)cc2)c2c(NC(=O)c3ccccc3)nnc-2[nH]1
cell growth (SRB; 10 µM, NCI60 single-dose screen, colon cancer; reference: untreated): 112%

COc1c(C)c(OC(=O)c2ccccc2)c(C)c(O)c1C(=O)/C=C/c1ccccc1
selectivity index (SRB; reference: normal over HT-29 IC50): > 1.54

Nc1nc(=O)n([C@H]2C[C@H](O)[C@@H](CO)O2)cc1CSCCCC[C@H](N)C(=O)O
genomic 5-methylcytosine level (nLC-MS; 10 µM, 96 h; reference: untreated): 2.5 fold

CCCN1CCN(c2ccc3nc(-c4ccc5nc(-c6cc(OC)ccc6OC)[nH]c5c4)[nH]c3c2)CC1
growth percent (SRB; 10 µM, 48 h): -23.2%

Cc1cc(=O)[nH]n1-c1nc(-c2ccc(Cl)cc2)c2c(NC(=O)c3ccccc3)nnc-2[nH]1
cell growth (SRB; 10 µM, NCI60 single-dose screen, colon cancer; reference: untreated): 108%

O=C1NCCc2[nH]c(-c3ccncc3)cc21
IC50 (MTS; colon cancer): 5.04 µM

Cn1cncc1-c1c(F)cncc1NC(=O)c1c(N)nn2cc(F)cnc12
IC90 (CHK1 phosphorylation, inhibitor, measured: pCHK1; added: 4NQO): 7.9 ng/mL (≈ 0.0213 µM)

CCCCCCCC(=O)Oc1c(C)c(O)c(C(=O)/C=C/c2ccccc2)c(OC)c1C
selectivity index (SRB; reference: normal over HT-29 IC50): 0.95

O=C(Nc1nnc2n3c(nc(-c4ccc(Cl)cc4)c1-2)SCC3=O)c1ccccc1
cell growth (SRB; 10 µM, NCI60 single-dose screen, colon cancer; reference: untreated): 99.8%

CCCCN1CCN(c2ccc3[nH]c(-c4ccc5[nH]c(-c6ccc(OCC)c(OCC)c6)nc5c4)nc3c2)CC1
growth percent (SRB; 10 µM, 48 h): -20.8%

CCn1cc(-c2cc(Cn3ccnc3)cc3c2CCN([C@H](c2cc(OC)ccn2)C2CC2)C3=O)c(C(F)(F)F)n1
EC50 (cell growth, inhibitor; 120 h): > 30 µM

CCCN1CCN(c2ccc3[nH]c(-c4ccc5[nH]c(-c6cc(OC)c(OC)c(OC)c6)nc5c4)nc3c2)CC1
growth percent (SRB; 10 µM, 48 h): 58%

Cc1n[nH]c2nc(-c3ccc(Cl)cc3)c3c(NC(=O)c4ccccc4)nnc-3n12
cell growth (SRB; 10 µM, NCI60 single-dose screen, colon cancer; reference: untreated): 119%

CCCN1CCN(c2ccc3[nH]c(-c4ccc5[nH]c(-c6ccc(OCC)c(OCC)c6)nc5c4)nc3c2)CC1
growth percent (SRB; 10 µM, 48 h): -31.4%

CCCCCC(=O)Oc1c(C)c(O)c(C(=O)/C=C/c2ccccc2)c(OC)c1C
selectivity index (SRB; reference: normal over HT-29 IC50): 0.88

CCn1cc(-c2cc(Cn3ccoc3=N)cc3c2CCN([C@@H](C)c2cc(OC)ccn2)C3=O)c(C(F)(F)F)n1
EC50 (cell growth, inhibitor; 120 h): > 30 µM

COc1c(C)c(OS(=O)(=O)c2ccc3ccccc3c2)c(C)c(O)c1C(=O)/C=C/c1ccccc1
selectivity index (SRB; reference: normal over HT-29 IC50): 1.23

C#C[C@@]1(O)[C@@H](CO)O[C@@H](n2ccc3c(N)ncnc32)[C@@H]1O
TGI (SRB; NCI-60 screen): 10 µM

COc1cccc(OC)c1-c1cc(C(=O)NC2(C(=O)O)C3CC4CC(C3)CC2C4)nn1-c1ccc(C(=O)N(C)CCCN(C)CCCN(C)C(=O)CN2CCN(CC(=O)[O-])CCN(CC(=O)[O-])CCN(CC(=O)[O-])CC2)cc1C(C)C.[177Lu+3] (stereo not drawn)
surface-bound activity (concentration not given, 240 min, 37 °C; reference: added): 1.4 ± 0.04%

Cc1cc(C)n(C(=S)[S][Au][PH](CCCCCC[PH]([Au][S]C(=S)n2nc(C)cc2C)(c2ccccc2)c2ccccc2)(c2ccccc2)c2ccccc2)n1
log10 TGI (cell growth, NCI-60 screen; colon cancer): > -4

COc1ccc(OC)c(-c2nc3ccc(-c4nc5ccc(N6CCN(C)CC6)cc5[nH]4)cc3[nH]2)c1
growth percent (SRB; 10 µM, 48 h): 76.7%

COc1c(C)c(OC(C)=O)c(C)c(O)c1C(=O)/C=C/c1ccccc1
selectivity index (SRB; reference: normal over HT-29 IC50): 0.8

[Cl-].c1csc([I+]c2cccs2)c1
extracellular H2O2 production (10 µM, 1 h; reference: control): 20 ± 2%

CCCCN1CCN(c2ccc3[nH]c(-c4ccc5[nH]c(-c6ccc(OCC)cc6)nc5c4)nc3c2)CC1
growth percent (SRB; 10 µM, 48 h): 21.4%

O=C(Nc1nnc2[nH]c(=S)[nH]c(-c3ccc(Cl)cc3)c1-2)c1ccccc1
cell growth (SRB; 10 µM, NCI60 single-dose screen, colon cancer; reference: untreated): 105%

COc1c(C)c(OCc2ccccc2)c(C)c(O)c1C(=O)/C=C/c1ccccc1
selectivity index (SRB; reference: normal over HT-29 IC50): 0.82

For quick reference, copied from above:
CCn1cc(-c2cc(Cn3ccoc3=N)cc3c2CCN([C@@H](C)c2cc(OC)ccn2)C3=O)c(C(F)(F)F)n1
EC50 (cell growth, inhibitor; 120 h): > 30 µM

COc1c(C)c(OS(=O)(=O)c2ccc3ccccc3c2)c(C)c(O)c1C(=O)/C=C/c1ccccc1
selectivity index (SRB; reference: normal over HT-29 IC50): 1.23

C#C[C@@]1(O)[C@@H](CO)O[C@@H](n2ccc3c(N)ncnc32)[C@@H]1O
TGI (SRB; NCI-60 screen): 10 µM
